Assay results from different studies.
A part holds a random share of what one study measured. Changes are numbered by the printed parent chain.

Study 1 — target: CCNA2, cyclin fold, Cln2 fusion (human); technique: yeast growth competition, sequencing; sample: yeast; setting: strong parent motif; relative to: not given; direction: higher = stronger binding
Starting sequence: CDKN1B docking peptide (human); PSACRNLFGPVDH; partner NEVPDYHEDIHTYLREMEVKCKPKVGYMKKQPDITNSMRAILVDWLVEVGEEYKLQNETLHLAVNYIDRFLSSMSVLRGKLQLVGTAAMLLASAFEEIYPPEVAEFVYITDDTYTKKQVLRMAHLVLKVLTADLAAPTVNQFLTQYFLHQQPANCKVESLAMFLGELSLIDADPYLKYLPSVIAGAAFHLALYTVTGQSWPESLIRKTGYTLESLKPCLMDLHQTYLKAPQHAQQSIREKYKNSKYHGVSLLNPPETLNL
For `L7F`, “normalised enrichment score” read 1.1.
Under “normalised enrichment score”, `R5Y` is recorded as 0.346.
Under “normalised enrichment score”, `L7C` is recorded as -0.757.
For `H13W`, “normalised enrichment score” read 4.15.

Study 2 — technique: aptamer microarray, sandwich; form: DNA with 2'F-ANA; sample: in vitro; concentration: 200 nM; with: Cy3 exosite-II aptamer, 400 nM; direction: higher = stronger binding; oligonucleotide: GGTTGGTGTGGTTGG
Target: Prothrombin, mature alpha-thrombin (F2, Homo sapiens, UniProt P00734)
Setting: whole 15-mer aptamer, many near background
`2'F-ANA at 2 3 6 7 8 10 13 14 15`: “mean fluorescence intensity” 250 a.u.
Under “mean fluorescence intensity”, `2'F-ANA at 1 2 5 8 12 14` is recorded as 51 a.u.
`2'F-ANA at 1 2 3 4 7 8 9 10 12` — result for “mean fluorescence intensity”: 78.8 a.u.
For `2'F-ANA at 4 6 8 9 14`, “mean fluorescence intensity” read 82.5 a.u.
Under “mean fluorescence intensity”, `2'F-ANA at 1 3 4 7 8 9 10 11 12 13 14` is recorded as 78.2 a.u.
For `2'F-ANA at 2 4 5 6 8 10 12 14 15`, “mean fluorescence intensity” read 47.9 a.u.
`2'F-ANA at 3 5 9 12 13 14 15`: “mean fluorescence intensity” 59.1 a.u.

Study 3 — technique: protein-binding microarray; form: double-stranded DNA, one strand shown; sample: in vitro; concentration: 2540 nM top; setting: 60-bp whole probe; with: salmon DNA 0.4 mg/ml; relative to: random background probes; direction: higher = stronger binding; constant ends, left off below: GCCTAGCAC … GTCTTGATTCGCTTGACGCTGCTG
Target: Interferon regulatory factor 3, full length, phosphomimetic (IRF3, Homo sapiens, UniProt Q14653, residues 1-427, S386D/S396D/S398D/S402D/T404D/S405D)
Residues (chain): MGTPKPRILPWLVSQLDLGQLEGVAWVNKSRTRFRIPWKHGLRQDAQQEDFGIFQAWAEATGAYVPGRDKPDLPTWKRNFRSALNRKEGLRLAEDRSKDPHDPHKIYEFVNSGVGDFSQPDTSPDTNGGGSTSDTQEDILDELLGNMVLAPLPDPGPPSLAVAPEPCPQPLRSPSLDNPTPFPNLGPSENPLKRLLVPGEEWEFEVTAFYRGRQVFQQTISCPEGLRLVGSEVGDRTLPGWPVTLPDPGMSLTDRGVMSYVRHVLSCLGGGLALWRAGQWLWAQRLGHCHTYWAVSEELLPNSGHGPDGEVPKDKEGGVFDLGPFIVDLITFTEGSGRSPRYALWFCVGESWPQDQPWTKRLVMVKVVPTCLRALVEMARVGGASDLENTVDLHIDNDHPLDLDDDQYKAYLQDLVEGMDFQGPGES
`CTTTCTTTTTTTCTTTTATTGTGCTAG` — result for “fitted relative affinity”: 6.83 z-score.
For `TTAGATATTGGGACTGGATTAGTGCTA`, “fitted relative affinity” read -0.51 z-score.
`GACGAACTGAGTTACGAGACGTGCTAG` — result for “fitted relative affinity”: -0.124 z-score.
For `TTAGGACTGGACTATCAGTTAGTGCTA`, “fitted relative affinity” read -0.337 z-score.
`GACGATTTCAGGACTGGAGACGTGCTA` — result for “fitted relative affinity”: 1.15 z-score.
`GACGGTTTCATTATCCTGACGTGCTAG` — result for “fitted relative affinity”: 4.37 z-score.

Further values, each from its own experiment
`PhoQ, residues 284 288 289 292 302 303 ASVMEA` gave a fold induction of 8.66 (PhoP, residues 12 14 15 18 19 GQAIL (Escherichia coli, UniProt P23836); Sort-seq, item: YFP reporter; E. coli; PhoQ-PhoP variant library, with: 10 µM Mg2+; relative to: high Mg2+ state, higher = stronger signaling).
